Measurements collected from several papers.
Protocols differ between the studies behind these lines. Values joined by “and” are separate records of one study, mostly repeats; a detail may differ. ± gives the spread as reported.
B1: CFH domains 1108-1231 V1197A (Homo sapiens, UniProt P08603); sequence looked up; chain KCGPPPPIDNGDITSFPLSVYAPASSVEYQCQNLYQLEGNKRITCRNGQWSEPPKCLHPCVISREIMENYNIALRWTAKQKLYSRTGESAEFVCKRGYRLSSRSHTLRTTCWDGKLEYPTCAKR
B2: TEPSIN (Homo sapiens, UniProt Q96N21); chain MAAAPPLRDRLSFLHRLPILLKGTSDDDVPCPGYLFEEIAKISHESPGSSQCLLEYLLSRLHSSSGHGKLKVLKILLYLCSHGSSFFLLILKRNSAFIQEAAAFAGPPDPLHGNSLYQKVRAAAQDLGSTLFSDTVLPLAPSQPLGTPPATGMGSQARPHSTLQGFGYSKEHGRTAVRHQPGQAGGGWDELDSGPSSQNSSQNSDLSRVSDSGSHSGSDSHSGASREPGDLAERVEVVALSDCQQELSLVRTVTRGPRAFLSREEAQHFIKACGLLNCEAVLQLLTCHLRGTSECTQLRALCAIASLGSSDLLPQEHILLRTRPWLQELSMGSPGPVTNKATKILRHFEASCGQLSPARGTSAEPGPTAALPGPSDLLTDAVPLPGSQVFLQPLSSTPVSSRSPAPSSGMPSSPVPTPPPDASPIPAPGDPSEAEARLAESRRWRPERIPGGTDSPKRGPSSCAWSRDSLFAGMELVACPRLVGAGAAAGESCPDAPRAPQTSSQRTAAKEPPGSEPSAFAFLNA
B3: ANGPT1 283-498 (Homo sapiens, UniProt Q15389); chain FRDCADVYQAGFNKSGIYTIYINNMPEPKKVFCNMDVNGGGWTVIQHREDGSLDFQRGWKEYKMGFGNPSGEYWLGNEFIFAITSQRQYMLRIELMDWEGNRAYSQYDRFHIGNEKQNYRLYLKGHTGTAGKQSSLILHGADFSTKDADNDNCMCKCALMLTGGWWFDACGPSNLNGMFYTAGQNHGKLNGIKWHYFKGPSYSLRSTTMMIRPLDF
B4: EFR3A 721-791 (Homo sapiens, UniProt Q14156); chain SNTEEITFEALKKAIDTSGMEEQEKEKRRLVIEKFQKAPFEEIAAQCESKANLLHDRLAQILELTIRPPPS
UniProt P01024, sequence (whole entry, looked up): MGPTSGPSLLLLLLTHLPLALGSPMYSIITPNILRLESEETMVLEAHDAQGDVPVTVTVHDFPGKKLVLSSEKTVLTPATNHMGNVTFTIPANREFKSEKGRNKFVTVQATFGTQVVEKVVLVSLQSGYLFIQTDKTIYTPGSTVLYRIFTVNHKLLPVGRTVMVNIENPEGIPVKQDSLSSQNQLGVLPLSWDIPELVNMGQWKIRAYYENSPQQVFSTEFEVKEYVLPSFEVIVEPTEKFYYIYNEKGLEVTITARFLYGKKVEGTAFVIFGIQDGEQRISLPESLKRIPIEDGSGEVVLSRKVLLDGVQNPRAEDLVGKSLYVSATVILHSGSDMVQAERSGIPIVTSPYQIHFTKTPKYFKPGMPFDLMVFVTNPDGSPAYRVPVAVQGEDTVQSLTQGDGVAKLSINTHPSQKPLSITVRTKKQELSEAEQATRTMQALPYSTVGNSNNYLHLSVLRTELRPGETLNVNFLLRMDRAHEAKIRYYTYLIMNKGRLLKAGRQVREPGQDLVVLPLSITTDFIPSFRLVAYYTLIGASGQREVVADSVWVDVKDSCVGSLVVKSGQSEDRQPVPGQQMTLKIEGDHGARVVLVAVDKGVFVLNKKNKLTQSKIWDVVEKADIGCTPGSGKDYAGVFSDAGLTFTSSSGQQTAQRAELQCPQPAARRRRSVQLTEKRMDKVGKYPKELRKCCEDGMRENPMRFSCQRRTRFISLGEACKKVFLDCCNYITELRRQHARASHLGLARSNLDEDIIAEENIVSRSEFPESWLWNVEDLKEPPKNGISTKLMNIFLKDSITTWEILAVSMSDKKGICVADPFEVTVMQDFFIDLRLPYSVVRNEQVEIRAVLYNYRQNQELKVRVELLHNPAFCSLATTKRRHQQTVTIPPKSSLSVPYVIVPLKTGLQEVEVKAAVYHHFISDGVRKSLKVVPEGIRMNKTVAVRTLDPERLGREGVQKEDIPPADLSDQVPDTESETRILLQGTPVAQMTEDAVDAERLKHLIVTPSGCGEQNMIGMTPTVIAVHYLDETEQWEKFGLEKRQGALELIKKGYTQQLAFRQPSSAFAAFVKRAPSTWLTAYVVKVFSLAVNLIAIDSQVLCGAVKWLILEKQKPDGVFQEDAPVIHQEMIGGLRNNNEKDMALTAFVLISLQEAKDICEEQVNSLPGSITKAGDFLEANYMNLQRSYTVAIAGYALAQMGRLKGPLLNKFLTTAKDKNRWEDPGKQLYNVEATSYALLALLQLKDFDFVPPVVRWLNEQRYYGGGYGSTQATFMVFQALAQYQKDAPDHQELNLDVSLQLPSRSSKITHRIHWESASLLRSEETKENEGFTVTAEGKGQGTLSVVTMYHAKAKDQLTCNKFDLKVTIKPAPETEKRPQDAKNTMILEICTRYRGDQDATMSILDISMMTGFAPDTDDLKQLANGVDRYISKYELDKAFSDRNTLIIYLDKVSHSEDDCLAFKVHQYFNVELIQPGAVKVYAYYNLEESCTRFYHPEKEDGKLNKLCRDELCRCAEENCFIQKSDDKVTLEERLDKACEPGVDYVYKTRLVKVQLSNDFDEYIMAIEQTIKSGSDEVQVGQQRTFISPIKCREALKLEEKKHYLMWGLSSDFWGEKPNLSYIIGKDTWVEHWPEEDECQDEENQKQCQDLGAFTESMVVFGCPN
UniProt P26039, sequence (whole entry, looked up): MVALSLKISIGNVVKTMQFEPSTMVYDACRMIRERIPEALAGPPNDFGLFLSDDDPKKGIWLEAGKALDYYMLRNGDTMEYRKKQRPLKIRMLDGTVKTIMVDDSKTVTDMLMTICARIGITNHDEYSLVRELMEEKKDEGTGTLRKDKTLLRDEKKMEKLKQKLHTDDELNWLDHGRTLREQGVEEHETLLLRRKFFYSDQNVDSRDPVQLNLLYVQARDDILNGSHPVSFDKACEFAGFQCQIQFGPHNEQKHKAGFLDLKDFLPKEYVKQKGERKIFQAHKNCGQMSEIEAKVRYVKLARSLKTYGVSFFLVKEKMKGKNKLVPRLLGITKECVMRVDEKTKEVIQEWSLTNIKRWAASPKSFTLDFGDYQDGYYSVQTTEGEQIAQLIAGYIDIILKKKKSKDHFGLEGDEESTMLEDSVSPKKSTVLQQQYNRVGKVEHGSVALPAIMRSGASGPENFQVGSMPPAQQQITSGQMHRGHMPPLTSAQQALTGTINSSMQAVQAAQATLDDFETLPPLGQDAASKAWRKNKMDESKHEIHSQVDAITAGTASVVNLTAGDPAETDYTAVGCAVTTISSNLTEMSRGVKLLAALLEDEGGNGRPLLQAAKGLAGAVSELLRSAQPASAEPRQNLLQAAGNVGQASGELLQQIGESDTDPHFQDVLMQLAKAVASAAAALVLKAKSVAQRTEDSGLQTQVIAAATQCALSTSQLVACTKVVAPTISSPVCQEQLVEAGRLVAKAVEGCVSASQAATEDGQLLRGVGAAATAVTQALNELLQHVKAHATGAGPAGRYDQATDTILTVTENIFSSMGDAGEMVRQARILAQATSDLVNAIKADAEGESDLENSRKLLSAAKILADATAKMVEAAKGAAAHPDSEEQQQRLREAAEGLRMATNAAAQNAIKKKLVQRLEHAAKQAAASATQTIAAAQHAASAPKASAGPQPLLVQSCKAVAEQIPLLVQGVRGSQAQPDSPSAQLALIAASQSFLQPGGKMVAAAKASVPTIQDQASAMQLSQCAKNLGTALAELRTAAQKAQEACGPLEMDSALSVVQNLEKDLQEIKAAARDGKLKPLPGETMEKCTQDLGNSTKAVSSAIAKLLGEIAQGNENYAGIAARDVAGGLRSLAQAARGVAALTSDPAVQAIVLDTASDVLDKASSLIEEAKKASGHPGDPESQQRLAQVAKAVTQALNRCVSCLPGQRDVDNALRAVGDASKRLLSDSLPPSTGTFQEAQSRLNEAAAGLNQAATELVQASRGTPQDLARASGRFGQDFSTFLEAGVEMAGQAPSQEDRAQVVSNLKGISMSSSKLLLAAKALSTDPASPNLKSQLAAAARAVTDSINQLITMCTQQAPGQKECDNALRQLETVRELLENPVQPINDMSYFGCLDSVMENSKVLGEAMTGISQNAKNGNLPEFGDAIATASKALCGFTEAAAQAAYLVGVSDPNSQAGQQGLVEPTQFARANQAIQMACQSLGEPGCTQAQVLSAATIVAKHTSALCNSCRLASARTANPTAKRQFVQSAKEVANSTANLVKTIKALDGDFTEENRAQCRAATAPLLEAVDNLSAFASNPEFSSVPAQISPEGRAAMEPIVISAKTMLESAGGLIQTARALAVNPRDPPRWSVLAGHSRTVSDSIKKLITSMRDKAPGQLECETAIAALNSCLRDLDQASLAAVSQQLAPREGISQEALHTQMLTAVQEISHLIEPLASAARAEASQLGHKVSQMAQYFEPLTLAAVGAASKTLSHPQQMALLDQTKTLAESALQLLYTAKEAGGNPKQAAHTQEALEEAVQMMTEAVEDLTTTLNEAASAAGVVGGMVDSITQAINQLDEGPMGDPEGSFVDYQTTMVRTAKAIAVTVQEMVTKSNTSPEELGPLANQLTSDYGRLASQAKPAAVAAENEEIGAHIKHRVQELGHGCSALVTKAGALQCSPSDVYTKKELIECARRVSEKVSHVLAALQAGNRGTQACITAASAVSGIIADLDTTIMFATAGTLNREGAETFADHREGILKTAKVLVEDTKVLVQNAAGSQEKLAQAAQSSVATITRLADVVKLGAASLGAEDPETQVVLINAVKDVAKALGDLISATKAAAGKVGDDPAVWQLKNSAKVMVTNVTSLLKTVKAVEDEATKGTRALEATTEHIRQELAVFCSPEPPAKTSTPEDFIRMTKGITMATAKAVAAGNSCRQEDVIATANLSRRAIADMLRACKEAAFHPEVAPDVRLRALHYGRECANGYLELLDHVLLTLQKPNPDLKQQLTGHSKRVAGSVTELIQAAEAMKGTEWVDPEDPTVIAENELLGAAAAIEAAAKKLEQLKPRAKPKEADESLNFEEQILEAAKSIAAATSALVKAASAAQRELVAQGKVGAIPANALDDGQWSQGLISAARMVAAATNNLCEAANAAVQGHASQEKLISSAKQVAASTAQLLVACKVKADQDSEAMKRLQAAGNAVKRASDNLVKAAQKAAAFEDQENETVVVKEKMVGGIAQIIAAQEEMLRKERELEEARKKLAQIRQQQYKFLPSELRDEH
UniProt P54609, sequence (whole entry, looked up): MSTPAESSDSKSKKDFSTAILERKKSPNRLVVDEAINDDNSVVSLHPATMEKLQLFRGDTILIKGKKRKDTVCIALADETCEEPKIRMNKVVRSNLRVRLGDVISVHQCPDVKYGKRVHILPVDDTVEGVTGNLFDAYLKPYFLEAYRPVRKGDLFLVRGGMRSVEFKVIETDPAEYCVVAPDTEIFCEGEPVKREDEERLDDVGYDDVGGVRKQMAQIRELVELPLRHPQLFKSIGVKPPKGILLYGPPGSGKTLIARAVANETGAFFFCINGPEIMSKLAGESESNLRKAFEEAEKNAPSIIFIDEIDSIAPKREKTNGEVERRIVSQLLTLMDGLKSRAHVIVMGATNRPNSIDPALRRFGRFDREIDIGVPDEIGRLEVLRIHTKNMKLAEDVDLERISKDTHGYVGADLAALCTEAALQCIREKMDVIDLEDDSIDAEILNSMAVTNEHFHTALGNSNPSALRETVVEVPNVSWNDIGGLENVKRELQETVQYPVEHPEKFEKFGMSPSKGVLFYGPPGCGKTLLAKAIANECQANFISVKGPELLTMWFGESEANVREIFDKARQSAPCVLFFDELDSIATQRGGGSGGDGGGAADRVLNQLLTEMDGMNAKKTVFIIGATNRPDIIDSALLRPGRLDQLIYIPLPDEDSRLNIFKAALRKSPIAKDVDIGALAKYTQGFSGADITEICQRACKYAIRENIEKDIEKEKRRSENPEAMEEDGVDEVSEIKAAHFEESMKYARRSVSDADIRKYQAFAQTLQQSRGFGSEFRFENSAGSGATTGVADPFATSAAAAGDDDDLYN

Molecule | target or system | assay | system | conditions | how to read | quantity | value
MQLMPFGCLLD | HLA class I histocompatibility antigen, A alpha chain, allele A*02:01 (Homo sapiens, UniProt P04439) | conformational ELISA | peptide | concentration not given | relative to: positive control peptide, direction not given | binding score | 4.2%
human GAPDH | – | co-immunoprecipitation | human RBC cytosol | DMTMM crosslinker, unit not given, together with: Band 3 peptide 1-56 bait | relative to: negative control | co-IP enrichment | 909
GLP-1/MC4 receptor agonist chimeric peptide, D-Ser position 2 | MC3R (Homo sapiens, UniProt P41968) | radioligand binding | – | – | – | Kd | 647 nM
B1 (CFH domains 1108-1231 V1197A) | C3 C3dg 955-1303 (Homo sapiens, UniProt P01024) | SPR | – | – | – | Kd | 4400 ± 300 nM
F2 thrombin S195A | PAR-1 residues 16-36 | BLI | – | – | – | Kd | 5440 ± 1760 nM
B2 (TEPSIN) | MAP1LC3B fragment (Homo sapiens) | BLI | – | – | – | Kd | 1710 nM and 900 nM and 930 nM and 1180 nM
B3 (ANGPT1 283-498) | TEK 23-748 (Homo sapiens, UniProt Q02763) | SPR | – | – | – | Kd | 23800 nM
B4 (EFR3A 721-791) | TTC7A/FAM126A FAM126A 1-308 | BLI | – | – | – | Kd | 0.718 nM
SCN2A fragment Y1916A (Homo sapiens) (sequence not shown) | CALM1 (Homo sapiens, UniProt P0DP23) | fluorescence titration | – | together with: CaCl2 | – | Kd | 73.3 nM
MDGA2 (Homo sapiens, UniProt Q7Z553) | EPHB2 (Homo sapiens, UniProt P29323) | Scatchard binding to cells | HEK293T | in cells | – | Kd | 102 nM
PUX6 (Arabidopsis thaliana, UniProt F4IXN6) | CDC48A 1-463 (Arabidopsis thaliana, UniProt P54609) | ITC | – | 10 °C | – | Kd | 8700 ± 900 nM
GLFQWIYRA | Jurkat T cells expressing 1G4 TCR | NFAT-eGFP reporter, flow cytometry | peptide | concentration not given, HLA-A*02:01 NY-ESO system | – | reporter activation | 0.28%
KLLITIHDRKEFAKFEEERANAKWDTANNPLYKEATSTFTNITYRGT (ITGB3 742-788 R736N (Homo sapiens, UniProt P05106); sequence looked up) | Tln1 309-405 (Mus musculus, UniProt P26039) | NMR titration | – | – | – | Kd | 279000 nM
ALLQWITQV | Jurkat T cells expressing 1G4 TCR | NFAT-eGFP reporter, flow cytometry | peptide | concentration not given, HLA-A*02:01 NY-ESO system | – | reporter activation | 78.1%
ARTKQTARKS (histone H3 1-10; K4me3) | ING2 189-262 M219A (Arabidopsis thaliana, UniProt B3H615) | ITC | peptide | – | – | Kd | 23400 ± 3600 nM
